Assay results from different studies.
Each numbered part is a random draw from the data of one study; scales do not carry over between parts.

Sample 1 — organism: Saccharomyces cerevisiae; effect on: peptide binding; method: yeast competitive growth sequencing; molecule type: peptide; strain: cyclin F-Cln2 fusion; concentration: concentration not given; notes: combined libraries, Cln2-subtracted; direction: direction not given
| Molecule | binding score |
| --- | --- |
| GSPLKKLFTSTAL | 0.686 |
| GSPLKALFTSTGL | 0.28 |
| GSPLKKLFTATGL | 1.66 |

Sample 2 — method: protein binding microarray; molecule type: double-stranded DNA, one strand shown; sample: in vitro; concentration: not given; baseline: not given; direction: higher = stronger binding
Target: Histone acetyltransferase KAT6A, winged helix 2, GST fusion (KAT6A, Homo sapiens, UniProt Q92794, residues 85-181)
Notes: 8-mer, flanks averaged, mean of 2 arrays, mostly near background
Construct (chain): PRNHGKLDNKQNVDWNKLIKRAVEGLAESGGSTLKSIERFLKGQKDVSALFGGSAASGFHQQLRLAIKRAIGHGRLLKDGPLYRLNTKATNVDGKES
| Strand | E-score |
| --- | --- |
| AAAACACA | 0.00372 |
| GACATAGC | 0.0567 |
| AGGTTCCG | 0.0239 |
| AGATCGCT | 0.0275 |
| CAGTGCCA | -0.152 |
| GAGAATGA | -0.106 |
| AAACATCT | -0.129 |
| ACAACAGG | -0.0684 |
| CTTTTCCC | 0.0849 |
| CTCGTAAG | 0.0625 |
| CCTGGTAA | -0.18 |
| CAGAATAA | 0.0149 |
| CCATCCCA | 0.0251 |
| GGCGCAAC | 0.215 |
| AAGTGTCG | 0.0798 |
| ACCTAAGA | -0.162 |
| CGTACGTA | -0.298 |
| GTATGGAA | -0.0548 |
| CCAGCGGC | 0.221 |
| CGGCGTCA | 0.0796 |
| GGAATCCA | 0.00134 |
| CGGGAACG | 0.0608 |

Sample 3 — method: RNA Bind-n-Seq; molecule type: RNA; sample: in vitro; concentration: not given; baseline: input RNA pool; direction: higher = stronger binding
Target: RING finger protein unkempt homolog, zinc fingers 1-6, GST-SBP tag (UNK, Homo sapiens, UniProt Q9C0B0, residues 30-357)
Chain of UniProt Q9C0B0 (30-357, looked up): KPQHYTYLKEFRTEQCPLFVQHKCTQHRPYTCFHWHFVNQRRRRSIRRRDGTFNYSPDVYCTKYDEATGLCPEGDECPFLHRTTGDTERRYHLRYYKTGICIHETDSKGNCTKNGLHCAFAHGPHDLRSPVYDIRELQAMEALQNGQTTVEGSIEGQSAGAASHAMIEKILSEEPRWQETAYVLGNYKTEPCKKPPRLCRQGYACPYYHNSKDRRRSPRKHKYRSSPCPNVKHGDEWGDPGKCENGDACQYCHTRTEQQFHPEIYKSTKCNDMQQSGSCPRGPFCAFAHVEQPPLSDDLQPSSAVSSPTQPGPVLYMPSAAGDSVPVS
Notes: RNA with constant flanks, human and mouse sites, ends assumed
| Strand | bound/input enrichment |
| --- | --- |
| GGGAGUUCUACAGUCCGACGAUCAGCAUUUCUUUUCUUUUAGGGAUGUCUGAAAGUCACAUCCAGUUACAUUACUGUGUUCUUUCUAAUGAAAAGUAAAGGUUUUAUAUAGAGAAACUUGAGUAAUUUUUACAUUUCUAAGACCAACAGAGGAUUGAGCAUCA | 0.219 ratio |
| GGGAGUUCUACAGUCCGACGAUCCAUCUCUCAUUUUAUAUGUCCAGAAAUGGCUUUGAAUUUUAAGCAAUUACUAGUUUUAAUUAGCUCUGCCCUCAUGAAGUAUUAUUAUAAUUCACCAUAAACAGCUAUCUGUCUGAAUUACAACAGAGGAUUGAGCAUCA | 50.7 ratio |
| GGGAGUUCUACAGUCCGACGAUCGUAGUUAUGAAUCGCAGACGCAAGAGGUUUCAGCAUUCCCAAUUAUCAAAAAACAGAAAAACAAAAAAAAGAAAGAAAAAAGUGCAACUUGAGGGACGACUUUCUUUAACAUAUCAUUCACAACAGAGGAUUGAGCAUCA | 0.594 ratio |
| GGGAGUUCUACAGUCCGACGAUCUAAUAAUUAGCUAUUUUAUAAAGGUAACGAGAAAAAAUACACUAUGUCUGAUGAAGUUUUUAGCACCACUUUGGCAUAUACAAAGAGUCCAAAAGUUACCAAAAGAACUACUUUCCAGGACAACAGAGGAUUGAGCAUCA | 4.92 ratio |
| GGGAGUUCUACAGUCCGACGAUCUAACUACUCGAAGACGAAUUCUACAGUCACCAGAAGCAAUGGAGCAGUAUUGAUAAAAGUACCCUAUCAGUUAGGACUCAGCUUAACCAUCGUUGCUUACAAAGAUGGCUACGUCUUGACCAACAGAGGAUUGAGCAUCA | 0.108 ratio |
| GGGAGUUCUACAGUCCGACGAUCUCCUGGUUUGAUUAUUGUGAUCAGCUCAUUAAGGAAGCCCAAAAGACUGCUGCUGUUGCUCUUGCCAAAGCUGUUCAUGAAAGAUUUUUCAUUGGUGUUAUGGAACCUCAAUUAAUGCAACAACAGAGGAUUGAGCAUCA | 0.265 ratio |
| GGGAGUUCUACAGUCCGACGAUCGGUCCGCCAAUAGAAAAUGGAUUCUAUUAUGACAUGUACCUCGAAGAAGGGGGUGUGUCUAGCAAUGAUUUCUCUUCUCUGGAGGCUUUGUGUAAGAAAAUCAUUAAAGAAAAACAAGCUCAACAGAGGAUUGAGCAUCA | 0.53 ratio |
| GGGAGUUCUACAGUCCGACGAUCGAGGCUUGCAAAGACAUCCUGCUGUUUAAGAAUCUGGAUCCGGAGCAGAUGUCUCAAGUAUUAGAUGCCAUGUUUGAAAAAUUGGUCAAAGAUGGGGAGCAUGUAAUUGAUCAAGGUGACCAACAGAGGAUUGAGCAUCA | 0.436 ratio |
| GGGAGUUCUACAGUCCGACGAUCUCUGGCAUUCUCAAUGACAGCAUGUGUGGCGGCAUGCAGCUGCUUCCAGAUCCCUUAUAUUCUCUUCCCACGGACAACACGUACCUUUUAACAAUCACGUCCACGGAUAAUGGCAGAAUCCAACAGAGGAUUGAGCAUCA | 0.149 ratio |
| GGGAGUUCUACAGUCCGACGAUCUAUAUUUUGGAUUUUGUUUGUGUUGAAUUUUUUAAUCAUUGUGCACAGAAGCAUCAUUGGUAGCUUUUAUAUGCAAAAUGGUCAUUUCAGAUGUAUGGUGUUUUUACACUACAAAGAAGUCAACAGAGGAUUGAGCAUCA | 0.137 ratio |
| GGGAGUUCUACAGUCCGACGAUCUGGAGAGGAAUCCUAUUAUUUGGACCACCAGGAACAGGAAAAUCUUAUUUGGCUAAAGCUGUUGCAACGGAAGCAAACAACUCAACAUUUUUCUCAAUAUCUUCCUCUGACCUUGUGUCUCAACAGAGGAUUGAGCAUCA | 0.186 ratio |

Sample 4 — method: RNA Bind-n-Seq; molecule type: RNA; sample: in vitro; concentration: 365 nM; baseline: no-protein control; direction: higher = stronger binding
Target: RNA binding protein fox-1 homolog 2, RRM domain, GST-SBP tag (RBFOX2, Homo sapiens, UniProt O43251-10, residues 100-194)
Notes: natural RNA segment, single round, ends assumed
Target sequence (chain): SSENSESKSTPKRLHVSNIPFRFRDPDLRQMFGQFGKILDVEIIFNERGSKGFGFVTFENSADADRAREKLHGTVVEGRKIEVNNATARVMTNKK
| Strand | RBNS enrichment (R) |
| --- | --- |
| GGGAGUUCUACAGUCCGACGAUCGAAUGAGCACUGGCUGAGGCUGUGGCCUUUGACCUUUAUGUUUCCUCCCGUCCUCUAAGACUAGCUCAUAAGCAUCCUGAGUCAAAGACCUCUGCCUGCCUUGUGAGUACUGGAAUUCUCGGGUGCCAA | 0.439 |
| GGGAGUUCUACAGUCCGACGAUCAGAGCAAAGGUGAUUCCUGGUGGAGAAGGGGAAAAGCCCUUCUACCCUAGAGUCAUGCCUGGAUCCACAACUCCACAGGUAUCUGCAGCAUUUUCUACCUGGCCCUAUCGUGGAAUUCUCGGGUGCCAA | 0.558 |
| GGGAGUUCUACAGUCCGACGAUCUAAGAGUUUGGAAAUAGGGGCUGGAGAGAUGCCUCUGUGGUUAAGAGCAUUGGCUGCUCCUCUAGAGGACCCAGGUUCAAUUCCCAGCGCCCACACAUCAGCUCACAACUUGGAAUUCUCGGGUGCCAA | 0.31 |
| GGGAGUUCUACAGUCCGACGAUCUGGAGACUGAAAAUGCCUACUGUAUUGAUGUCUUUAUUCUUUGGUGAAUCAAAAGUUUUAAAAGUAGUUUUAAAAACUUUACACUAUAAUGAUUUAGUUUUGUUAUUGCAUGGAAUUCUCGGGUGCCAA | 1.01 |
| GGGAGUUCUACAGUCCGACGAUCUUUCCCUUCUCUCCAGUUCUCCUUCCCUUACCAAGGAGAGGGGAGCAAAUGGUUUUGGGCAAGGGCUUUGGCCAUUCAUGUCAAGCUGGUUGUGGGUUUUUCAAGGUGCCUGGAAUUCUCGGGUGCCAA | 0.201 |
| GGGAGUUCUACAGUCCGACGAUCAUGUUUGUGGUGGGGCCUCAUGGUGCCUAGGAGGAGAUAAAGAUGAGGAGGUUUUUCCUUAUUGUAUAAAUGAAUAUUUGUAUGAUUAAAUUAACACACACACCAAAAAAUGGAAUUCUCGGGUGCCAA | 0.41 |
| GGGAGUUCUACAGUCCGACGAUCCUGCCUAAAAAAAAAAAAAAAAAAAAAAAAAAAAAAAAAAAAUGCUAUAAAAUGGUGAAAGCUUCCUUCUAAACUGCCCCAAGUGUUGAAGUCUUCACUUUAUUUUGUUGUGGAAUUCUCGGGUGCCAA | 2.41 |
| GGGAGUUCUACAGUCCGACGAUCUGUAAAUUAAAAAUGCUUUAGUUUACCUGGCAUUUGGGUAUGCUCAGUAAUGCCUGCCAGCAGCACCUUUAAUUUCAGCUGGUGGCCUGUGAUGGGUUCUGUUUACCUUUUGGAAUUCUCGGGUGCCAA | 0.376 |
| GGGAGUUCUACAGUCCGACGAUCCAUCAGCUAUUGAGAUAGGCCUGCUCAGUUAAUAUGGCUUCCUGGCCAGUAGGCAUUCUGUACCAACUUCUAAUAGAAAUGAGGCAAGGACAAACUUGGAUCAAGAGGACUGGAAUUCUCGGGUGCCAA | 0.864 |
| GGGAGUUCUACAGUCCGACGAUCGCAGGGCAGAGUUCAGGUCCACUGGGCUGAGUGUCCCCUUGGGCCCAUGGCCCAGUCACUCAGGGGCGAGUUUCUUUUCUAACAUAGCCCUUUCUUUGCCAUGAGGCCAUUGGAAUUCUCGGGUGCCAA | 0.285 |
| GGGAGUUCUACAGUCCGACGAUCCUGGACAGAGCCAGCCUGAGGCCCACGGGCAGCUGCCUGUUUGCAUGCCUGGGAAGAGGUCCUCAGUGUGAGUUGGGGUCAAACUUGGGCUCCAAGCUGCUUGAGGGGGUUGGAAUUCUCGGGUGCCAA | 4.48 |
| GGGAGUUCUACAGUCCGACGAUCGACCAUUUGUGUACAAGUGUUUGUGCAGACAUAUGUUUAACUUUUUAGGAAAUUGCCAGACUGUUUUCCAAAGAAGCUGCACCAUUUUACAUUUGCACCAGCAAUGUAGGUGGAAUUCUCGGGUGCCAA | 0.43 |

For quick reference, copied from above (sample 2):
| Strand | E-score |
| --- | --- |
| AAGTGTCG | 0.0798 |
| ACCTAAGA | -0.162 |
| CGTACGTA | -0.298 |
| GTATGGAA | -0.0548 |
| CCAGCGGC | 0.221 |
| CGGCGTCA | 0.0796 |
